Measurements from different studies.
Lines come from different studies, so protocols differ. Values joined by “and” are separate records of one study, mostly repeats; a detail may differ. Numbers after ± are the reported error.

SMILES | target or system | test | system | conditions | scale | quantity | result
O=c1nc(NO)ccn1[C@@H]1O[C@H](CO)[C@@H](O)[C@H]1O | – | – | rat maternal blood dialysate | 25 ng/mL, more than 4 weeks, -20 °C, low concentration, with: molnupiravir 5 ng/mL | – | long-term stability | 101.2 ± 0.58%
C=CC[N+]1([C@H]2C[C@H]3[C@@H]4CC[C@H]5C[C@H](O)[C@@H](N6CCOCC6)C[C@]5(C)[C@H]4CC[C@]3(C)[C@H]2OC(C)=O)CCCC1 | – | – | Sprague Dawley rat, plasma | intravenous, 0.2 mg/kg, with: vehicle IV | – | terminal half-life | 0.326 h
CN[C@@H](C)C(=O)N[C@H]1CN(S(=O)(=O)c2cccc(S(=O)(=O)N3CC[C@H]4CC[C@@H](C(=O)NC(c5ccccc5)c5ccccc5)N4C(=O)[C@@H](NC(=O)[C@H](C)NC)C3)c2)CC[C@H]2CC[C@@H](C(=O)NC(c3ccccc3)c3ccccc3)N2C1=O | – | – | patients with advanced solid tumours | 12 mg, phase I monotherapy | – | treatment-related facial nerve disorder incidence | 0%
CN1CC[C@@H](c2c(O)cc(O)c3c(=O)cc(-c4ccc(C(F)(F)F)cc4Cl)oc23)[C@@H]1CO | – | refers to: Hypotension | relapsed or refractory haematological malignancies | oral, dose not given, all arms | – | patients with adverse event | 10%
O=C(Oc1ccc(F)cc1)[c-]1cccc1.[Fe+2].c1cc[cH-]c1 | – | cyclic voltammetry | methanol/DMEM 1:1 with TBAPF6 | concentration not given, Pt disk electrode, Ag/AgCl reference, with: scan rate 100 mV/s | – | reduction potential | 488 mV
CC(C)[C@@H](CN1CC[C@@](C)(c2cccc(O)c2)[C@@H](C)C1)NC(=O)[C@@H]1Cc2ccc(O)cc2CN1C | – | – | rat | intraperitoneal, 5 mg/kg, brain over plasma AUClast | – | Kp | 0.3
C=CC(=O)Nc1cc(Nc2ncc(C(=O)OC(C)C)c(-c3cn(C)c4ccccc34)n2)c(OC)cc1N(C)CCN(C)C | – | – | NSCLC patients, primary efficacy population | 160 mg once daily, one event | – | fatal pneumonitis | 0.9%
COc1cccc(Oc2ccccc2NC(=O)CNC(=O)c2cccc3ccccc23)c1 | – | – | esterase-deficient SCID mice, male, blood | oral, 40 mg/kg/day, 14 days, toxicity study | – | mean corpuscular volume | 47 fL and 46 fL and 44 fL
CC(C)N(CCc1c[nH]c2cccc(OC(=O)CCCC(=O)O)c12)C(C)C.Cl | – | – | male beagle dog, plasma | intravenous, 1 mg/kg | – | volume of distribution | 8.61 L
C[C@@H]1OC(=O)NN=C1c1ccc(-c2ccc(F)cc2)c(C(F)(F)F)c1 | – | phase I trial, refers to: Fatigue worst grade 1 | human patients | 5 mg loading then 0.25 mg daily | – | patients with adverse event | 0%
CCc1ccc(CC/C=C/c2ccc3c(c2)C(=O)CC3)cc1 | – | – | Sprague-Dawley rat, female, serum | oral, 450 mg/kg/day, 14 days | – | sodium | 141 mM
[Se] | – | – | rat | single dose, sodium selenate | – | brain-to-plasma ratio | ~0.2
C[C@]1(CO)Cc2ncn(-c3ccc(C#N)c(Cl)c3)c2C(=O)O1 | – | – | human, Chinese, plasma | 3 mg single dose, geometric mean | – | AUC(0-inf) | 0.904 µM·h
COc1ncccc1-c1cnn2ccc(N3CCN(C(=O)OC(C)C)CC3)nc12 | – | – | mouse nerve ligation model, plasma | oral, 10 mg/kg, 180 min after last dose, repeat dosing day 1 | – | drug concentration | 1600 nM
COc1ccc(C[C@@H]2NC(=O)[C@H]([C@@H](C)O)NC(=O)[C@@H]3[C@@H]4CCN3C(=O)[C@@H]3Cc5cn(c6ccc(F)cc56)CCCCCCN(Cc5ccc(cc5)CCNC(=O)[C@]5(C)CCCN5C2=O)C(=O)CCC(=O)N[C@@H](C)C(=O)N[C@H](CNC(=O)CCCCC[N+](C)(C)C)C(=O)N[C@@H](Cc2cccc(c2)CNC(=O)CO4)C(=O)N3)cc1 | – | refers to: Pyrexia | humans | concentration not given, Study-001 | – | participants with adverse event | 2%
NCCCC[C@@H]1NC(=O)[C@@H](Cc2c[nH]c3ccccc23)NC(=O)[C@H](c2ccccc2)NC(=O)[C@@H]2C[C@@H](OC(=O)NCCN)CN2C(=O)[C@H](Cc2ccccc2)NC(=O)[C@H](Cc2ccc(OCc3ccccc3)cc2)NC1=O | – | – | healthy volunteers | subcutaneous, 1950 µg twice daily, day 5, 1.00 h | – | QTcI change from baseline | 5.5 ms
[NH2][Pt]([NH2])([OH])([OH])([Cl])[Cl] | – | ICP-MS, refers to: platinum | blood-brain barrier spheroids | 5 µM, 3 h, 37 °C | – | uptake | 0.7 ng/mL
CCN1[C@@H](C(=O)NC23CCC(C(=O)O)(CC2)CC3)[C@H](c2cccc(Cl)c2F)[C@]2(C(=O)Nc3cc(Cl)ccc32)C12CCCCC2 | – | – | patients with advanced solid tumours | oral, 150 mg | – | grade ≥3 Lymphocytopenia incidence | 50%
CC1(C)[C@H](C=C(Cl)Cl)[C@H]1C(=O)OCc1cccc(Oc2ccccc2)c1 | – | IVIVE scaling | human adult | – | – | hepatic intrinsic clearance | 9170 L/h/kg liver

SMILES | target or system | test | system | conditions | scale | quantity | result
Cn1cncc1-c1c(F)cncc1NC(=O)c1c(N)nn2cc(F)cnc12 | – | – | human patients | oral, 220 mg once daily | – | grade ≥3 anaemia incidence | 33%
O=c1cc(-c2ccc(O)c(O)c2)oc2cc(O)cc(O)c12 | – | – | male Sprague-Dawley rat, obese | oral, 100 mg/kg of neohesperidin, 12 to 24 h | – | faecal excreted amount | 102 ± 56.5 ng
CCN(CC)CCNC(=O)c1ccc(-c2nc(CN3CCc4ccccc43)c(C)o2)cc1 | Vero-E6 | CellTiter-Glo ATP | – | concentration not given, 72 h, retest 8-point duplicates | baseline: DMSO 0%, hyamine -100%, more negative, more toxic | cytotoxicity efficacy | -10%
O=C(Nc1ccccc1)C1CCN(C(=O)Oc2cccnc2)CC1 | – | – | healthy women | oral, 20 mg, 7 days | – | adverse event Lethargy | 7.1%
C=CC(=O)Nc1cc(Nc2nccc(Nc3cc(Cl)c(F)cc3C(C)(C)O)n2)c(OC)cc1N1CC[C@@H](N(C)C)C1 | – | – | human patients | oral, 300 mg, treatment-emergent adverse events | – | patients with hypokalaemia | 9.8%
CC(C)C[C@H](NC(=O)[C@H](CCCCN)NC(=O)OCC1c2ccccc2-c2ccccc21)C(=O)N[C@H](C(=O)N[C@@H](Cc1ccccc1)C(=O)N[C@@H](Cc1ccccc1)C(=O)N[C@@H](CCCCN)C(=O)NCC(=O)N[C@@H](Cc1ccccc1)C(=O)N[C@@H](C)C(=O)N[C@@H](Cc1c[nH]c2ccccc12)C(=O)N[C@@H](CC(N)=O)C(=O)N[C@H](C(=O)N[C@H]1CSSC[C@@H](C(=O)N[C@@H](Cc2c[nH]cn2)C(=O)N[C@@H](CCCNC(=N)N)C(=O)N[C@@H](CCCNC(=N)N)C(=O)N[C@@H](C)C(=O)N[C@@H](CC(N)=O)C(N)=O)NC(=O)[C@H](C(C)C)NC(=O)[C@H](CCCNC(=N)N)NC(=O)[C@H](C(C)C)NC(=O)CNC(=O)[C@H](CC(N)=O)NC(=O)[C@H](CCCNC(=N)N)NC(=O)[C@H](Cc2ccc(O)cc2)NC(=O)[C@H](C(C)C)NC1=O)C(C)C)C(C)C | – | – | ICR mouse, blood | intramammary, 10 mg/kg, day 5, 3 d dosing | – | eosinophils | 2.4 ± 0.24%
COc1ccc2c(Sc3ccc(Cl)cc3)c(C(=O)NCCCN3CCCCC3)[nH]c2c1 | Vero-E6 | CellTiter-Glo ATP | – | 72 h, retest 8-point duplicates | baseline: DMSO 0%, hyamine -100%, more negative, more toxic | maximum response | -1.68%
CO[C@H]1C[C@@H]2CC[C@@H](C)[C@@](O)(O2)C(=O)C(=O)N2CCCC[C@H]2C(=O)O[C@H]([C@H](C)C[C@@H]2CC[C@@H](OC(=O)NCCOCCOCCOCCOCCOCCOCCOCCOCCC(=O)N3CCc4cc(Cn5nc(-c6ccc7oc(N)nc7c6)c6c(N)ncnc65)ccc4C3)[C@H](OC)C2)C[C@@H](O)[C@H](C)/C=C(\C)[C@@H](O)[C@@H](OC)C(=O)[C@H](C)C[C@H](C)/C=C/C=C/C=C/1C | – | – | patients with advanced solid tumours | intravenous, 16 mg weekly, any grade | – | mucositis incidence | 75%
O=C(O)CCCOc1ccc(F)cc1-c1cc(-c2ccccc2C(F)(F)F)n(-c2ccccc2)n1 | – | refers to: adrenals | Crl:CD(SD) rats, male | iv, 25 µg/kg, 14 days | – | relative organ weight | 16.8 ± 3 mg%
O=C1Nc2cc3[nH]nc(-c4ccncc4)c3cc2CN1Cc1ccccc1 | – | CTCAE v4.03 | advanced solid tumour patients | intravenous, 0.9 mg/kg, schedules 1/2 | – | patients with fatigue | 0%
CC(=O)c1c(C)c2cnc(Nc3ccc(C4CCN(CCS(C)(=O)=O)CC4)cn3)nc2n(C2CCCC2)c1=O | – | – | human, plasma | oral, 50 mg, day 1 single dose | – | t1/2 | 13.6 h
O=S(=O)(Nc1ccccc1)c1ccc(NC(=S)Nc2ccccc2)cc1 | – | refers to: RDW | female mouse, blood | oral, 80 mg/kg daily, 14 days | – | blood cell fraction | 16.4%
CC(C)n1c(C2CCNCC2)nc2c([N+](=O)[O-])c(Br)c(Br)cc21 | – | refers to: Leukocytosis | AML patients | dose not given, all doses | – | related grade ≥3 adverse events | 0%
C=CC(=O)N1CC[C@H](n2nc(C#Cc3cc(OC)cc(OC)c3)c3c(N)ncnc32)C1 | – | – | patients with advanced solid tumours | oral, dose not given, Malaise, any grade, QD, with: sevelamer hydrochloride | – | adverse drug reaction incidence | 9.1%
CC(C)Nc1ccnc(Nc2cccc(-c3cccnc3)c2)n1 | – | refers to: Calcium | mouse, blood | intraperitoneal, 10 mg/kg | – | blood chemistry | 8.7 mg/dL
CCC[C@@](N)(CO)CCc1ccc(OCCCCCC(C)C)cc1 | – | – | hound dogs, male | intravenous, 0.25 mg/kg, geometric mean | – | clearance | 25.9 mL/min/kg
Cc1ccc(S(=O)(=O)Nc2c(N[C@H]3CC[C@H](NC(=O)Nc4ccc(F)c(Cl)c4)CC3)c(=O)c2=O)cc1 | – | – | rat, plasma | oral, 20 mg/kg | – | AUC(0-inf) | 0.24 µM·h
COc1cc2c(Oc3ccc4[nH]c(C)cc4c3F)ccnc2cc1OCC1(N)CC1 | – | – | paediatric recurrent refractory sarcoma | 8 mg | – | grade 1 or 2 Neutropenia | 0%

Some of these lines once more:
SMILES | target or system | test | system | conditions | scale | quantity | result
COc1ccc2c(Sc3ccc(Cl)cc3)c(C(=O)NCCCN3CCCCC3)[nH]c2c1 | Vero-E6 | CellTiter-Glo ATP | – | 72 h, retest 8-point duplicates | baseline: DMSO 0%, hyamine -100%, more negative, more toxic | maximum response | -1.68%
O=C(O)CCCOc1ccc(F)cc1-c1cc(-c2ccccc2C(F)(F)F)n(-c2ccccc2)n1 | – | refers to: adrenals | Crl:CD(SD) rats, male | iv, 25 µg/kg, 14 days | – | relative organ weight | 16.8 ± 3 mg%
COc1cccc(Oc2ccccc2NC(=O)CNC(=O)c2cccc3ccccc23)c1 | – | – | esterase-deficient SCID mice, male, blood | oral, 40 mg/kg/day, 14 days, toxicity study | – | mean corpuscular volume | 47 fL and 46 fL and 44 fL
CCN(CC)CCNC(=O)c1ccc(-c2nc(CN3CCc4ccccc43)c(C)o2)cc1 | Vero-E6 | CellTiter-Glo ATP | – | concentration not given, 72 h, retest 8-point duplicates | baseline: DMSO 0%, hyamine -100%, more negative, more toxic | cytotoxicity efficacy | -10%
CO[C@H]1C[C@@H]2CC[C@@H](C)[C@@](O)(O2)C(=O)C(=O)N2CCCC[C@H]2C(=O)O[C@H]([C@H](C)C[C@@H]2CC[C@@H](OC(=O)NCCOCCOCCOCCOCCOCCOCCOCCOCCC(=O)N3CCc4cc(Cn5nc(-c6ccc7oc(N)nc7c6)c6c(N)ncnc65)ccc4C3)[C@H](OC)C2)C[C@@H](O)[C@H](C)/C=C(\C)[C@@H](O)[C@@H](OC)C(=O)[C@H](C)C[C@H](C)/C=C/C=C/C=C/1C | – | – | patients with advanced solid tumours | intravenous, 16 mg weekly, any grade | – | mucositis incidence | 75%
